Results from different studies.
Lines come from different studies, so protocols differ.

Structure (SMILES)	test	system	setting	how to read	quantity	result
NC(=O)N1c2ccccc2C=Cc2ccccc21		male patients	oral, dose not given, treatment-related adverse events		patients with Diarrhea	7%
CCOc1c([C@H](C)n2nc(C)c3c(N)ncnc32)cc(Cl)c(F)c1[C@@H]1CNC(=O)C1	measured: QTcF change ≤30 ms	previously treated B-cell malignancy	oral, 5 mg once daily, overall population	reference: baseline	patients	100%
O=C(Nc1nc2cccc(-c3ccc(CN4CCS(=O)(=O)CC4)cc3)n2n1)C1CC1		rheumatoid arthritis patients	oral, 100 mg twice daily, 4 weeks, TEAE regardless of relatedness		patients with Gastritis	0%
C=CC(=O)NC1CCN(c2ncc3ncnc(Nc4ccc(Oc5ccc6c(c5)ncn6C)c(C)c4)c3n2)CC1		male patients	oral, dose not given, on-treatment adverse events		patients with Headache	0%
COc1ccc([C@@H](O)c2cc(-c3ncnc4cc(N5CCOCC5)ccc34)c(F)cc2Cl)nn1	measured: Fatigue	locally advanced rectal cancer patients	dose not given, all dose groups, together with: capecitabine plus radiotherapy		patients with TEAE	47%
FC(F)(F)c1ccc(CNc2ccc(Cc3c[nH]c4ncc(Cl)cc34)cn2)cn1	measured: aspartate aminotransferase increased	non-TGCT solid tumour patients	oral, 1000 mg/day, all grades		patients with treatment-related adverse event	8%
CNC(=O)c1cc(Oc2ccc(NC(=O)Nc3cc(C(C)(C)C)nn3-c3ccc4ncccc4c3)c(F)c2)ccn1		patients	oral, dose not given, cycles 1 and 2, Medium Cmax subgroup		patients with visual abnormalities	33%
CNC(=O)c1ccc(-c2cnc3ncc(Cc4ccc5ncccc5c4)n3n2)cc1F	measured: Headache, all grades	hepatocellular carcinoma patients	oral, 600 mg twice daily, expansion cohort, any causality		patients with adverse event	0%
C[C@@H](c1ccc2nccn2c1)n1nnc2ncc(-c3cnn(C)c3)nc21	measured: treatment-related grade ≥3 Vomiting	EGFR-mutant MET-altered NSCLC	oral, dose not given, all		patients with adverse events	3%
C[C@@H](Nc1cc(F)cc(F)c1)c1cc(C(=O)N(C)C)cc2c(=O)cc(N3CCOCC3)oc12	measured: Rash	advanced solid tumour patients	oral, dose not given, dose finding		patients discontinuing for AE	3.2%
COc1cc2nccc(Oc3ccc(NC(=O)c4cc5c(n(-c6ccccc6)c4=O)CCCC5=O)nc3)c2cc1OC		patients with relapsed/refractory AML	oral, 3 mg once daily		patients with TEAEs	100%
CC(C)C[C@H](NC(=O)CNC(=O)c1cc(Cl)ccc1Cl)B(O)O	measured: Hypophosphataemia, all grades	newly diagnosed multiple myeloma patients	oral, dose not given, maintenance phase, new onset, cycle 17 or later		patients with adverse event	17%
Cc1cc(-c2nnc(N)nc2-c2ccc(F)cc2)cc(Cl)n1	measured: Rash	IO-naive mCRPC patients, male	oral, dose not given, treatment-related, grade 1		patients with immune-mediated AE	0%
CCO[C@H]1CCN(Cc2c(OC)cc(C)c3[nH]ccc23)[C@H](c2ccc(C(=O)O)cc2)C1	measured: Pyrexia	PNH patients, active haemolysis	oral, 200 mg twice daily, extension phase		patients with adverse event	0%
C=CC(=O)Nc1cc(Nc2nccc(-c3cn(C)c4ccccc34)n2)c(OC)cc1N(C)CCN(C)C	measured: Fatigue grade ≥3	EGFR-mutant MET-altered NSCLC	oral, study		patients with treatment-related AEs	0%
Cc1cc(NC2CCN(C(=O)OC3CCN(C(=O)/C=C/CN(C)C)C3)CC2)n2ncc(C(C)C)c2n1 (centres unmarked)	Phase I dose escalation CTCAE v4.0, measured: Flatulence	patients with advanced solid tumours	dose not given, all dose schedules any grade		patients with adverse event	7%
COc1cc(Nc2ncc3c(n2)-c2ccc(Cl)cc2C(c2c(F)cccc2OC)=NC3)ccc1C(=O)O	measured: Diarrhea, grade 3	cancer patients, phase 1/2	oral, dose not given, together with: pembrolizumab		patients with adverse event	4%

Excerpt of the above:
Structure (SMILES)	test	system	setting	how to read	quantity	result
Cc1cc(NC2CCN(C(=O)OC3CCN(C(=O)/C=C/CN(C)C)C3)CC2)n2ncc(C(C)C)c2n1 (centres unmarked)	Phase I dose escalation CTCAE v4.0, measured: Flatulence	patients with advanced solid tumours	dose not given, all dose schedules any grade		patients with adverse event	7%
COc1cc(Nc2ncc3c(n2)-c2ccc(Cl)cc2C(c2c(F)cccc2OC)=NC3)ccc1C(=O)O	measured: Diarrhea, grade 3	cancer patients, phase 1/2	oral, dose not given, together with: pembrolizumab		patients with adverse event	4%
